Experimental data pooled from the literature.
Numbered parts are unrelated; each lists some results of a single study. Substitutions count along the parent as printed.

Series 1
Target: Prothrombin, mature alpha-thrombin (F2, Homo sapiens, UniProt P00734)
Technique: aptamer microarray, sandwich
Form: DNA with 2'F-ANA
Matrix: in vitro
Concentration: 200 nM
Notes: whole 15-mer aptamer, many near background
With: Cy3 exosite-II aptamer, 400 nM
Reading: higher = stronger binding
Measurement: mean fluorescence intensity
Sequence: GGTTGGTGTGGTTGG
2'F-ANA at 2 3 8 9 10 11 14 15: 266 a.u.
2'F-ANA at 1 3 5 7 9 11 12 13 14: 44.3 a.u.
2'F-ANA at 3 4 6 8 10 12 13 14: 172 a.u.
2'F-ANA at 1 4 5 7 8 9 10 11: 45.2 a.u.
2'F-ANA at 5 6 8 11 12 13 14 15: 51.7 a.u.
2'F-ANA at 1 2 3 4 5 6 11 12: 94.6 a.u.
2'F-ANA at 4 5 6 9 11 14: 45.4 a.u.
2'F-ANA at 1 3 7 11 13 15: 269 a.u.

Series 2
Target: CRIPT, C-terminal peptide
Technique: DHFR complementation, deep sequencing
Matrix: yeast
Notes: single substitutions, model-inferred values
Reference: wild type
Reading: higher = weaker binding
Measurement: binding free energy change
Starting sequence: ERBIN, PDZ domain 1 (human); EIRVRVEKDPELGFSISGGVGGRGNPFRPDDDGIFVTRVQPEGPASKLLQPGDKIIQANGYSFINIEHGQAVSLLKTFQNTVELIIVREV; partner TKNYKQTSV
G21F: 0.156 kcal/mol
R3C: -0.226 kcal/mol
K76L: 0.376 kcal/mol
V6T: 1.33 kcal/mol
G43C: 0.843 kcal/mol
F27S: 0.932 kcal/mol
V82Q: 1.41 kcal/mol
V20Q: -0.0951 kcal/mol

Series 3
Target: Max-binding protein MNT, bHLH-zipper, MAX partner unstated (MNT, Homo sapiens, UniProt Q99583, residues 220-300)
Technique: protein-binding microarray
Form: double-stranded DNA, one strand shown
Matrix: in vitro
Concentration: not given
Notes: k-mer, scored over probes, only values ≥0.25
Reading: higher = stronger binding
Measurement: E-score
Target sequence (chain): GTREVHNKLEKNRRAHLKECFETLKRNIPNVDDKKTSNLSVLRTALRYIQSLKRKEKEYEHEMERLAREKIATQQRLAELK
ATGTGTAC: 0.262
CAGCCACG: 0.278
ACGCCCCG: 0.274
ACGCGACT: 0.383
ACGAGCGT: 0.25
ACACATGC: 0.446
ACACGTCC: 0.254
AAACGTGA: 0.356

Single results of other studies
Starting sequence: PafA, mature enzyme, eGFP fusion (Elizabethkingia meningoseptica, UniProt Q9KJX5); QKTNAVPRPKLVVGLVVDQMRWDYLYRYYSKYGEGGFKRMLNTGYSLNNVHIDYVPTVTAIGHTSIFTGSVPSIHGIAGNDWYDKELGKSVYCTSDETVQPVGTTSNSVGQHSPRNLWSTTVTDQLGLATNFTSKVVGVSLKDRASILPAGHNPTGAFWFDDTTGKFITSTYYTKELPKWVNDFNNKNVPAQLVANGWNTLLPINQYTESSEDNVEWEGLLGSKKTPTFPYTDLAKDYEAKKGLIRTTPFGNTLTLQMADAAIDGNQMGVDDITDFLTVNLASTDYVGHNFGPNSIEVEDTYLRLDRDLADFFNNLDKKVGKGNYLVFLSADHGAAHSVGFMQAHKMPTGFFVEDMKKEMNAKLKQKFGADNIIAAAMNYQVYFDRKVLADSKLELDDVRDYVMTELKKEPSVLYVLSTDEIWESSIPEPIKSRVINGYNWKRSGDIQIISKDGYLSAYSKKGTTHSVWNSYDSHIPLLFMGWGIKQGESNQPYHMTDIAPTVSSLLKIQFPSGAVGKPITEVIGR
E359V  oxyanion analog dissociation constant (vanadate, free oxyanion; microfluidic competitive inhibition; in vitro, cell-free expressed; not given, derived from inhibition constants, unchanged parent 676 nM; lower = stronger binding): 606 nM

Excerpt of the above (series 1):
2'F-ANA at 2 3 8 9 10 11 14 15: 266 a.u.
2'F-ANA at 1 3 5 7 9 11 12 13 14: 44.3 a.u.
2'F-ANA at 3 4 6 8 10 12 13 14: 172 a.u.
